Measured values collected from several papers.
Each line is one published result; not all experiments were run side by side.
Partner: itself
B1: SCNN1G 1-649 (Homo sapiens, UniProt P51170); chain MAPGEKIKAKIKKNLPVTGPQAPTIKELMRWYCLNTNTHGCRRIVVSRGRLRRLLWIGFTLTAVALILWQCALLVFSFYTVSVSIKVHFRKLDFPAVTICNINPYKYSTVRHLLADLEQETREALKSLYGFPESRKRREAESWNSVSEGKQPRFSHRIPLLIFDQDEKGKARDFFTGRKRKVGGSIIHKASNVMHIESKQVVGFQLCSNDTSDCATYTFSSGINAIQEWYKLHYMNIMAQVPLEKKINMSYSAEELLVTCFFDGVSCDARNFTLFHHPMHGNCYTFNNRENETILSTSMGGSEYGLQVILYINEEEYNPFLVSSTGAKVIIHRQDEYPFVEDVGTEIETAMVTSIGMHLTESFKLSEPYSQCTEDGSDVPIRNIYNAAYSLQICLHSCFQTKMVEKCGCAQYSQPLPPAANYCNYQQHPNWMYCYYQLHRAFVQEELGCQSVCKEACSFKEWTLTTSLAQWPSVVSEKWLLPVLTWDQGRQVNKKLNKTDLAKLLIFYKDLNQRSIMESPANSIEMLLSNFGGQLGLWMSCSVVCVIEIIEVFFIDFFSIIARRQWQKAKEWWAWKQAPPCPEAPRSPQGQDNPALDIDDDLPTFNSALHLPPALGTQVPGTPPPKYNTLRLERAFSNQLTDTQMLDEL
B2: comFB 1-98 D33A (Bacillus subtilis, UniProt P39146); chain MLVNSKEIVMKELLDRYMDQLHMACTCQVCQNAVLALSLNKVSPSYVTDFKKIAYTKAELVDKQKNTAMLVILAESAAVVSESPSDLCQTKQEEAFIN
B3: dlg1 1-97 I34G/V37G (Drosophila melanogaster, UniProt P31007); sequence looked up; chain MPVKKQEAHRALELLEDYHARLSEPQDRALRIAGERGIRIFKSRLFQALLDIQEFYELTLLDDSKSIQQKTAETLQIATKWEKDGQAVKIADFIKSS
B4: OsCATC T105D (Oryza sativa, UniProt Q10S82); sequence looked up; chain MDPYKHRPSSSFNGPLWSTNSGAPVWNNNNSLTVGSRGPILLEDYHLVEKLANFDRERIPERVVHARGASAKGFFEVTHDITHLTCADFLRAPGVQTPVIVRFSDVIHERGSPETLRDPRGFAIKFYTREGNWDLVGNNFPVFFIRDGMKFPDMVHSLKPNPKSHVQENWRILDFFSHHPESLHMFTFLFDDIGIPADYRHMDGSGVNTYTLVNRAGKSHYVKFHWKPTCGVKSLLDDEAVTVGGTNHSHATQDLYDSIAAGNFPEWKLFIQTIDPDHEDRFDFDPLDVTKTWPEDIVPLQPVGRMVLNRNIDNFFSENEQLAFCPGIIVPGIYYSDDKLLQTRIFSYSDTQRHRLGPNYLLLPPNAPKCAHHNNHYDGFMNFMHRDEEVDYFPSRYDPAKHAPRYPIPSATLTGRREKVVIAKENNFKQPGERYRSWDPARQDRFIKRWIDALSDPRLTHEIRSIWLSYWSQADRSLGQKLASRLSAKPSM
B5: PHYA 1-876 F745E (Arabidopsis thaliana, UniProt P14712); phytochromobilin thioether linked; chain GMSGSRPTQSSEGSRRSRHSARIIAQTTVDAKLHADFEESGSSFDYSTSVRVTGPVVENQPPRSDKVTTTYLHHIQKGKLIQPFGCLLALDEKTFKVIAYSENASELLTMASHAVPSVGEHPVLGIGTDIRSLFTAPSASALQKALGFGDVSLLNPILVHCRTSAKPFYAIIHRVTGSIIIDFEPVKPYEVPMTAAGALQSYKLAAKAITRLQSLPSGSMERLCDTMVQEVFELTGYDRVMAYKFHEDDHGEVVSEVTKPGLEPYLGLHYPATDIPQAARFLFMKNKVRMIVDCNAKHARVLQDEKLSFDLTLCGSTLRAPHSCHLQYMANMDSIASLVMAVVVNEEDGEGDAPDATTQPQKRKRLWGLVVCHNTTPRFVPFPLRYACEFLAQVFAIHVNKEVELDNQMVEKNILRTQTLLCDMLMRDAPLGIVSQSPNIMDLVKCDGAALLYKDKIWKLGTTPSEFHLQEIASWLCEYHMDSTGLSTDSLHDAGFPRALSLGDSVCGMAAVRISSKDMIFWFRSHTAGEVRWGGAKHDPDDRDDARRMHPRSSFKAFLEVVKTRSLPWKDYEMDAIHSLQLILRNAFKDSETTDVNTKVIYSKLNDLKIDGIQELEAVTSEMVRLIETATVPILAVDSDGLVNGWNTKIAELTGLSVDEAIGKHFLTLVEDSSVEIVKRMLENALEGTEEQNVQFEIKTHLSRADAGPISLVVNACASRDLHENVVGVCFVAHDLTGQKTVMDKETRIEGDYKAIIQNPNPLIPPIFGTDEFGWCTEWNPAMSKLTGLKREEVIDKMLLGEVFGTQKSCCRLKNQEAFVNLGIVLNNAVTSQDPEKVSFAFFTRGGKYVECLLCVSKKLDREGVVTGVFCFLQLAS
B6: ZBTB9 17-148 (Homo sapiens, UniProt Q96C00); sequence looked up; chain NPAPRTIQIEFPQHSSSLLESLNRHRLEGKFCDVSLLVQGRELRAHKAVLAAASPYFHDKLLLGDAPRLTLPSVIEADAFEGLLQLIYSGRLRLPLDALPAHLLVASGLQMWQVVDQCSEILRELETSGGGI
B7: ph-p 1397-1577 D16K/D17R/D33K/D34R (Drosophila melanogaster, UniProt P39769); chain GVGSGETNGLGTGGIVGVDAMALVDRLDEAMAEEKMQTEATPKLSESFPILGASTEVPPMSLPVQAAISAPSPLAMPLGSPLSVALPTLAPLSVVTSGAAPKSSEVNGTDRPPISSWSVKRVSNFIRELPGCQDYVKRFIQQEIDGQALLLLKEKHLVNAMGMKLGPALKIVAKVESIKEV
B8: TOP2 C180A/C731A/E155C (Saccharomyces cerevisiae, UniProt P06786); AlexaFluor 488/546 labels; sequence looked up; chain MSTEPVSASDKYQKISQLEHILKRPDTYIGSVETQEQLQWIYDEETDCMIEKNVTIVPGLFKIFDEILVNAADNKVRDPSMKRIDVNIHAEEHTIEVKNDGKGIPIEIHNKENIYIPEMIFGHLLTSSNYDDDEKKVTGGRNGYGAKLCNIFSTCFILETADLNVGQKYVQKWENNMSIAHPPKITSYKKGPSYTKVTFKPDLTRFGMKELDNDILGVMRRRVYDINGSVRDINVYLNGKSLKIRNFKNYVELYLKSLEKKRQLDNGEDGAAKSDIPTILYERINNRWEVAFAVSDISFQQISFVNSIATTMGGTHVNYITDQIVKKISEILKKKKKKSVKSFQIKNNMFIFINCLIENPAFTSQTKEQLTTRVKDFGSRCEIPLEYINKIMKTDLATRMFEIADANEENALKKSDGTRKSRITNYPKLEDANKAGTKEGYKCTLVLTEGDSALSLAVAGLAVVGRDYYGCYPLRGKMLNVREASADQILKNAEIQAIKKIMGLQHRKKYEDTKSLRYGHLMIMTDQDHDGSHIKGLIINFLESSFPGLLDIQGFLLEFITPIIKVSITKPTKNTIAFYNMPDYEKWREEESHKFTWKQKYYKGLGTSLAQEVREYFSNLDRHLKIFHSLQGNDKDYIDLAFSKKKADDRKEWLRQYEPGTVLDPTLKEIPISDFINKELILFSLADNIRSIPNVLDGFKPGQRKVLYGCFKKNLKSELKVAQLAPYVSEATAYHHGEQSLAQTIIGLAQNFVGSNNIYLLLPNGAFGTRATGGKDAAAARYIYTELNKLTRKIFHPADDPLYKYIQEDEKTVEPEWYLPILPMILVNGAEGIGTGWSTYIPPFNPLEIIKNIRHLMNDEELEQMHPWFRGWTGTIEEIEPLRYRMYGRIEQIGDNVLEITELPARTWTSTIKEYLLLGLSGNDKIKPWIKDMEEQHDDNIKFIITLSPEEMAKTRKIGFYERFKLISPISLMNMVAFDPHGKIKKYNSVNEILSEFYYVRLEYYQKRKDHMSERLQWEVEKYSFQVKFIKMIIEKELTVTNKPRNAIIQELENLGFPRFNKEGKPYYGSPNDEIAEQINDVKGATSDEEDEESSHEDTENVINGPEELYGTYEYLLGMRIWSLTKERYQKLLKQKQEKETELENLLKLSAKDIWNTDLKAFEVGYQEFLQRDAEARGGNVPNKGSKTKGKGKRKLVDDEDYDPSKKNKKSTARKGKKIKLEDKNFERILLEQKLVTKSKAPTKIKKEKTPSVSETKTEEEENAPSSTSSSSIFDIKKEDKDEGELSKISNKFKKISTIFDKMGSTSATSKENTPEQDDVATKKNQTTAKKTAVKPKLAKKPVRKQQKVVELSGESDLEILDSYTDREDSNKDEDDAIPQRSRRQRSSRAASVPKKSYVETLELSDDSFIEDDEEENQGSDVSFNEED
B9: SPOP M48I (Homo sapiens, UniProt O43791); sequence looked up; chain MSRVPSPPPPAEMSSGPVAESWCYTQIKVVKFSYMWTINNFSFCREEIGEVIKSSTFSSGANDKLKWCLRVNPKGLDEESKDYLSLYLLLVSCPKSEVRAKFKFSILNAKGEETKAMESQRAYRFVQGKDWGFKKFIRRDFLLDEANGLLPDDKLTLFCEVSVVQDSVNISGQNTMNMVKVPECRLADELGGLWENSRFTDCCLCVAGQEFQAHKAILAARSPVFSAMFEHEMEESKKNRVEINDVEPEVFKEMMCFIYTGKAPNLDKMADDLLAAADKYALERLKVMCEDALCSNLSVENAAEILILADLHSADQLKTQAVDFINYHASDVLETSGWKSMVVSHPHLVAEAYRSLASAQCPFLGPPRKRLKQS
B10: Igf2 E-peptide 92-180 S95C (Mus musculus, UniProt P09535); sequence looked up; chain RDVCTSQAVLPDDFPRYPVGKFFQYDTWRQSAGRLRRGLPALLRARRGRMLAKELKEFREAKRHRPLIVLPPKDPAHGGASSEMSSNHQ
B11: XPR1 Y22A/E23A/K26A (Homo sapiens, UniProt Q9UBH6); sequence looked up; chain MKFAEHLSAHITPEWRKQYIQAAAFADMLYSAQDQAPSVEVTDEDTVKRYFAKFEEKFFQTCEKELAKINTFYSEKLAEAQRRFATLQNELQSSLDAQKESTGVTTLRQRRKPVFHLSHEERVQHRNIKDLKLAFSEFYLSLILLQNYQNLNFTGFRKILKKHDKILETSRGADWRVAHVEVAPFYTCKKINQLISETEAVVTNELEDGDRQKAMKRLRVPPLGAAQPAPAWTTFRVGLFCGIFIVLNITLVLAAVFKLETDRSIWPLIRIYRGGFLLIEFLFLLGINTYGWRQAGVNHVLIFELNPRSNLSHQHLFEIAGFLGILWCLSLLACFFAPISVIPTYVYPLALYGFMVFFLINPTKTFYYKSRFWLLKLLFRVFTAPFHKVGFADFWLADQLNSLSVILMDLEYMICFYSLELKWDESKGLLPNNSEESGICHKYTYGVRAIVQCIPAWLRFIQCLRRYRDTKRAFPHLVNAGKYSTTFFMVTFAALYSTHKERGHSDTMVFFYLWIVFYIISSCYTLIWDLKMDWGLFDKNAGENTFLREEIVYPQKAYYYCAIIEDVILRFAWTIQISITSTTLLPHSGDIIATVFAPLEVFRRFVWNFFRLENEHLNNCGEFRAVRDISVAPLNADDQTLLEQMMDQDDGVRNRQKNRSWKYNQSISLRRPRLASQSKARDTKVLIEDTDDEANT
B12: SPOP D77E (Homo sapiens, UniProt O43791); sequence looked up; chain MSRVPSPPPPAEMSSGPVAESWCYTQIKVVKFSYMWTINNFSFCREEMGEVIKSSTFSSGANDKLKWCLRVNPKGLEEESKDYLSLYLLLVSCPKSEVRAKFKFSILNAKGEETKAMESQRAYRFVQGKDWGFKKFIRRDFLLDEANGLLPDDKLTLFCEVSVVQDSVNISGQNTMNMVKVPECRLADELGGLWENSRFTDCCLCVAGQEFQAHKAILAARSPVFSAMFEHEMEESKKNRVEINDVEPEVFKEMMCFIYTGKAPNLDKMADDLLAAADKYALERLKVMCEDALCSNLSVENAAEILILADLHSADQLKTQAVDFINYHASDVLETSGWKSMVVSHPHLVAEAYRSLASAQCPFLGPPRKRLKQS
B13: Pnma1 (Mus musculus, UniProt Q8C1C8); sequence looked up; chain MAMTLLEDWCRGMDVNSQRALLVWGIPVNCDETEIEETLQAAMPQVSYRVLGRMFWREENAKAALLELTGAVDYSLIPREMPGKGGLWKVVFKPPTSDAVFLERLHLFLAREGWTVQDVARVLGFQNPAPAPGPEMPAEMLNYILDNVIQPLVESIWYKKLTLFSGKDIPGPGEETFDSWLEHSNEIIEEWQVSDIEKRRRLMESLRGPAADVIRILKTNNAAITTAECLKALEQVFGSVESSRDAQVRFLNTYQNPGEKLSSYVIRLEPLLQKVVDKGVIDKDNVNQARLEQVIAGANHSGALRRQLWLAGAEEGPAPNLFQLLVQIREEEAKKEEEEAEAALLQLGLEGHF

Sequence | assay | test system | conditions | binding
B1 (SCNN1G 1-649) | cryo-EM |  |  | binds
B2 (comFB 1-98 D33A) | SEC-MALS |  |  | binds
B3 (dlg1 1-97 I34G/V37G) | SEC |  |  | binds
KLVFFAE (Abeta residues 16-22 (Homo sapiens); N-acetyl, C-amide) | solid-state NMR | peptide |  | binds
B4 (OsCATC T105D) | cross-linking |  |  | binds
B5 (PHYA 1-876 F745E) | SEC |  |  | binds
B6 (ZBTB9 17-148) | negative-stain electron microscopy |  |  | binds
B7 | AUC |  | sedimentation velocity, self-association | binds
B8 (TOP2 C180A/C731A/E155C) | FRET or BRET |  | added: ADP, ATP, ADPNP | binds
B9 (SPOP M48I) | negative-stain TEM |  |  | binds
B10 (Igf2 E-peptide 92-180 S95C) | dynamic light scattering |  | added: ATP | binds
B11 (XPR1 Y22A/E23A/K26A) | cryo-EM |  |  | binds
B12 (SPOP D77E) | negative-stain TEM |  |  | binds
B13 (Pnma1) | size-exclusion chromatography, negative-stain TEM |  |  | binds

Excerpt of the above:
Sequence | assay | test system | conditions | binding
B9 (SPOP M48I) | negative-stain TEM |  |  | binds
B10 (Igf2 E-peptide 92-180 S95C) | dynamic light scattering |  | added: ATP | binds
